Published values pooled from the literature.
Lines come from different studies, so protocols differ. ± marks the error that the study gave.
B1: HNRNPH1 192-280 (Homo sapiens, UniProt P31943); chain RTHYDPPRKLMAMQRPGPYDRPGAGRGYNSIGRGAGFERMRRGAYGGGYGGYDDYNGYNDGYGFGSDRFGRDLNYCFSGMSDHRYGDGG
B2: Fmnl3 555-954 (Mus musculus, UniProt Q6ZPF4); chain GLSAIRIKKPIKTKFRLPVFNWTALKPNQINGTVFSELDDEKILEDLDLDRFEELFKTKAQGPALDLICSKNKTAQKAASKVTLLEANRAKNLAITLRKAGRSAEEICRAIHTFDLQTLPVDFVECLMRFLPTEAEVKLLRQYERERQPLEELAAEDRFMLLFSKVERLTQRMAGMAFLGNFQDNLQMLTPQLNAIIAASASVKSSQKLKQMLEIILALGNYMNSSKRGAVYGFKLQSLDLLLDTKSTDRKMTLLHFIALTVKEKYPELANFWQELHFVEKAAAVSLENVLLDVKELGRGMELIRRECSIHDNSVLRNFLSTNEGKLDKLQRDAKTAEEAYNAVVRYFGESPKTTPPSVFFPVFVRFIRSYKEAEQENEARKKQEEVMREKQLAQEAKKL
B3: Bid (Mus musculus, UniProt P70444); chain MDSEVSNGSGLGAEHITDLLVFGFLQSSGCTRQELEVLGRELPVQAYWEADLEDELQTDGSQASRSFNQGRIEPDSESQEEIIHNIARHLAQIGDEMDHNIQPTLVRQLAAQFMNGSLSEEDKRNCLAKALDEVKTAFPRDMENDKAMLIMTMLLAKKVASHAPSLLRDVFHTTVNFINQNLFSYVRNLVRNEMD
B4: HNRNPF 192-415 (Homo sapiens, UniProt P52597); chain RSYSDPPLKFMSVQRPGPYDRPGTARRYIGIVKQAGLERMRPGAYSTGYGGYEEYSGLSDGYGFTTDLFGRDLSYCLSGMYDHRYGDSEFTVQSTTGHCVHMRGLPYKATENDIYNFFSPLNPVRVHIEIGPDGRVTGEADVEFATHEEAVAAMSKDRANMQHRYIELFLNSTTGASNGAYSSQVMQGMGVSAAQATYSGLESQSVSGCYGAGYSGQNSMGGYD
B5: Gp1.2 residues 2-end 2-85 (bacteriophage T7, UniProt P03780); sequence looked up; chain GRLYSGNLAAFKAATNKLFQLDLAVIYDDWYDAYTRKDCIRLRIEDRSGNLIDTSTFYHHDEDVLFNMCTDWLNHMYDQLKDWK
B6: Fmnl3 555-954 N646A (Mus musculus, UniProt Q6ZPF4); chain GLSAIRIKKPIKTKFRLPVFNWTALKPNQINGTVFSELDDEKILEDLDLDRFEELFKTKAQGPALDLICSKNKTAQKAASKVTLLEANRAKALAITLRKAGRSAEEICRAIHTFDLQTLPVDFVECLMRFLPTEAEVKLLRQYERERQPLEELAAEDRFMLLFSKVERLTQRMAGMAFLGNFQDNLQMLTPQLNAIIAASASVKSSQKLKQMLEIILALGNYMNSSKRGAVYGFKLQSLDLLLDTKSTDRKMTLLHFIALTVKEKYPELANFWQELHFVEKAAAVSLENVLLDVKELGRGMELIRRECSIHDNSVLRNFLSTNEGKLDKLQRDAKTAEEAYNAVVRYFGESPKTTPPSVFFPVFVRFIRSYKEAEQENEARKKQEEVMREKQLAQEAKKL
B7: RRN3 18-627 (Saccharomyces cerevisiae, UniProt P36070); sequence looked up; chain PIDQKKRKVQFSDSTGLVTLQPEEIKDEVFSAAMYSRFVKSALDDLDKNDSTQIGIIANQVALPSKNPERINDKNLNILLDILSSNINRIESSRGTFLIQSIINFEKWWELPPHTLSKYIYFIKILCSSIPKWWQDVSMILVSCFILPIKQTVCHHDMLKYFLRMIPSSMGFIDTYLAKFFPNKNDTRRKLVNYTSNLLKLRGYCSELGFQIWSLLIEKIISIDVELQNELDELDDDVDDDDLEEVDLEDDDDLDDDSGDDDDENCGNSNEELRSGAADGSQSDSEDMDIIEGMDGTEEYNVELTQGIKELSTKLDSILTLVSTHVEEQVTPESLESGEGVGVFNTLTTLFKTHVLPTYYTRSIQYIMFHVSQQQLELMDSFLVTLIDISFAVNEAAEKKIKSLQYLGSYIARAKKLSRTQIIFVASYLTSWLNRYVIEREEEVDQRGGMERFKHFYAAFQALCYIFCFRHNIFRDTDGNWECELDKFFQRMVISKFNPLKFCNENVMLMFARIAQQESVAYCFSIIENNNNERLRGIIGKADSDKKENSAQANTTSSSWSLATRQQFIDLQSYFPYDPLFLKNYKILMKEYYIEWSEASGEYESDGSDD

`RII-PvDBP region II R274A (Plasmodium vivax)` has an RBC rosetting of 50% (ACKR1 1-60 C4A/C51A/C54A (Homo sapiens, UniProt Q16570); red blood cell rosetting; HEK293T; reference: wildtype, higher = more rosetting).
Under “firefly luciferase signal”, `SUV39H1 chromodomain` is recorded as 2.1e+07 p/s/cm^2/sr (Histone H3.1 2-14 K9L (Homo sapiens, UniProt P68431); reporter luciferase; HepG2; K9L mutant, in cells).
For `B1 (HNRNPH1 192-280)`, binding read “binds” (HNRNPF 192-415 (Homo sapiens, UniProt P52597); trapping in hydrogel, hydrogel binding; pH 7.5, 4 °C, NaCl 200 mM).
`sbi fragment (Staphylococcus aureus)` gave an IC50 of 10000 nM (C3 (Homo sapiens); alternative complement pathway inhibition, inhibitor; human serum).
`BUD4 fragment (Saccharomyces cerevisiae)` has a beta-galactosidase activity of 66.08 ± 0.5 Miller units (MLC1 (Saccharomyces cerevisiae, UniProt P53141); two-hybrid; higher = stronger interaction).
With `rpoD (Escherichia coli, UniProt P00579)` the apparent Kd was 270 nM (rpoB/rpoC core RNA polymerase (Escherichia coli); pausing efficiency; adhE TEC).
With `B2 (Fmnl3 555-954)` the IC50 was 1.7 nM (ACTA1, pyrene label (Oryctolagus cuniculus, UniProt P68135); inhibition of filament elongation, inhibitor, pyrene-actin assay).
`B3 (Bid)` — result for binding: “binds” (BCL2L1 1-209 G138A (Homo sapiens, UniProt Q07817-1); co-IP).
For `B4 (HNRNPF 192-415)`, binding read “binds” (HNRNPH1 192-449 (Homo sapiens, UniProt P31943); trapping in hydrogel, hydrogel binding; pH 7.5, 4 °C, NaCl 200 mM).
For `B5 (Gp1.2 residues 2-end 2-85)`, the IC50 was 66 nM (dgt 1-505 (Escherichia coli, UniProt P15723); dGTP hydrolysis inhibition, inhibitor; from kcat decrease, together with: dGTP).
`GMI (Ganoderma microsporum)` has an IC50 of 75 nM (ACE2 (Homo sapiens, UniProt Q9BYF1); cell-cell fusion inhibition, inhibitor, split luciferase; HEK293T).
The N/C ratio of `MPS3 fragment (Saccharomyces cerevisiae)` is reported as 0.51 N/C ratio (normalised) (HTZ1 (Saccharomyces cerevisiae, UniProt Q12692); nuclear localisation; yeast; 180 min, together with: rapamycin; lower = less nuclear).
With `B6 (Fmnl3 555-954 N646A)` the fraction bound was 0.56 fraction (ACTA1, TMR label (Oryctolagus cuniculus, UniProt P68135); AUC; KCl 50 mM).
For `ACE2/pIgR VHH6 Fc fusion ACE2 , Fc fusion (Homo sapiens)`, the koff was 5.93e-05 s⁻¹ (PIGR (Homo sapiens, UniProt P01833); BLI).
For `ACE2/ALB albumin fusion, FcRn non-binding x (Homo sapiens)`, the elimination half-life was 3.1 h (FCGRT (Homo sapiens, UniProt P55899); serum sandwich ELISA; hFcRn+/+ hAlb+/+ transgenic mice; 4 mg/kg, in vivo, intravenous).
`B7 (RRN3 18-627)` gave a co-precipitated fraction of 64% (RPA43 (Saccharomyces cerevisiae, UniProt P46669); co-IP; 120 min, starvation, cross-linked; reference: 0 min, higher = more co-precipitation).

A few entries again:
With `B6 (Fmnl3 555-954 N646A)` the fraction bound was 0.56 fraction (ACTA1, TMR label (Oryctolagus cuniculus, UniProt P68135); AUC; KCl 50 mM).
For `ACE2/ALB albumin fusion, FcRn non-binding x (Homo sapiens)`, the elimination half-life was 3.1 h (FCGRT (Homo sapiens, UniProt P55899); serum sandwich ELISA; hFcRn+/+ hAlb+/+ transgenic mice; 4 mg/kg, in vivo, intravenous).
